Results of several laboratories.
Parts stem from different laboratories: compare values within a part only. ± gives the spread as reported.
UniProt O14757, sequence (whole entry, looked up): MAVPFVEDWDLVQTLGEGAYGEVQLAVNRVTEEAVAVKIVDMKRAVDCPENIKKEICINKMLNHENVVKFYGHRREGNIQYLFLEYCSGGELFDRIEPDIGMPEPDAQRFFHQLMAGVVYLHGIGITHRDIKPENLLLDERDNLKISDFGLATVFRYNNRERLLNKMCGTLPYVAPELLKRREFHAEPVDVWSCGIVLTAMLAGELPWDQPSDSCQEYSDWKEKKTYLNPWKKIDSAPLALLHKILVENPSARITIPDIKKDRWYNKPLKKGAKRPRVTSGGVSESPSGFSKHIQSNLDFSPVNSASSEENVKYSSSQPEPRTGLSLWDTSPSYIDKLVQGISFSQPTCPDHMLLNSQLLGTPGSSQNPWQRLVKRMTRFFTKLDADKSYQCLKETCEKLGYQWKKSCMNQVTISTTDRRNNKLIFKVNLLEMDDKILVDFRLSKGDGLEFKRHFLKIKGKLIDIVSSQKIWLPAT
UniProt Q12851, sequence (whole entry, looked up): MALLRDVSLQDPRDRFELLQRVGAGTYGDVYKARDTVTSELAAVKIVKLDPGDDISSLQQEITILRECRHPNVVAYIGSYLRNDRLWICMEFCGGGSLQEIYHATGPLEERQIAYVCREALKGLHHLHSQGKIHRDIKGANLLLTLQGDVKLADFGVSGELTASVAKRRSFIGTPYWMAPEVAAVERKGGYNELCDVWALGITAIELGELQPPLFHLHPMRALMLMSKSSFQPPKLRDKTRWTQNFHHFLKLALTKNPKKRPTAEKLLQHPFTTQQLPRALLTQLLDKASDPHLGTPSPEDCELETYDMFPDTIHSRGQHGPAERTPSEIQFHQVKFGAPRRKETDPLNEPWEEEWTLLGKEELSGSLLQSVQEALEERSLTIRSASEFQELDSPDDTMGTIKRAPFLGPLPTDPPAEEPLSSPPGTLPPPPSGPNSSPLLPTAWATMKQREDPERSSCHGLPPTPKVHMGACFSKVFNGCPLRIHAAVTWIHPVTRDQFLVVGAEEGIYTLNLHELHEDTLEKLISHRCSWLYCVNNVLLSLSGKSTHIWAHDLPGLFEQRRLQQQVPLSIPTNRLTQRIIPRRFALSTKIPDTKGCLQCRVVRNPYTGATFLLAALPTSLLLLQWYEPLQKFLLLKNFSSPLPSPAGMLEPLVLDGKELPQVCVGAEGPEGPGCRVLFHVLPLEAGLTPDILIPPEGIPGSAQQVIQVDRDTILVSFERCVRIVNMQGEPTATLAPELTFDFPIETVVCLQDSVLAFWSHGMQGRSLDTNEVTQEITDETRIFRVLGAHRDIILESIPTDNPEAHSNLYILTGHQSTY
UniProt P48729, sequence (whole entry, looked up): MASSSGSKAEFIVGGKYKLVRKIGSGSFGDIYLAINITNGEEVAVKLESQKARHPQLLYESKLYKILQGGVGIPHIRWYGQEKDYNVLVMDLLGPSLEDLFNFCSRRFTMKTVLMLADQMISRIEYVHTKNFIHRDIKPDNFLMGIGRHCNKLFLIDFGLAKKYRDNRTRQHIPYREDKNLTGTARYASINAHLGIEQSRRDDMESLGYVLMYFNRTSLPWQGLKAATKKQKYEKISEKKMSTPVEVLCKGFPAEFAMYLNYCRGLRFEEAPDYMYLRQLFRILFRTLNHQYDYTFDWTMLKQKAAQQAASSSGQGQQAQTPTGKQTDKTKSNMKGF
UniProt P41743, sequence (whole entry, looked up): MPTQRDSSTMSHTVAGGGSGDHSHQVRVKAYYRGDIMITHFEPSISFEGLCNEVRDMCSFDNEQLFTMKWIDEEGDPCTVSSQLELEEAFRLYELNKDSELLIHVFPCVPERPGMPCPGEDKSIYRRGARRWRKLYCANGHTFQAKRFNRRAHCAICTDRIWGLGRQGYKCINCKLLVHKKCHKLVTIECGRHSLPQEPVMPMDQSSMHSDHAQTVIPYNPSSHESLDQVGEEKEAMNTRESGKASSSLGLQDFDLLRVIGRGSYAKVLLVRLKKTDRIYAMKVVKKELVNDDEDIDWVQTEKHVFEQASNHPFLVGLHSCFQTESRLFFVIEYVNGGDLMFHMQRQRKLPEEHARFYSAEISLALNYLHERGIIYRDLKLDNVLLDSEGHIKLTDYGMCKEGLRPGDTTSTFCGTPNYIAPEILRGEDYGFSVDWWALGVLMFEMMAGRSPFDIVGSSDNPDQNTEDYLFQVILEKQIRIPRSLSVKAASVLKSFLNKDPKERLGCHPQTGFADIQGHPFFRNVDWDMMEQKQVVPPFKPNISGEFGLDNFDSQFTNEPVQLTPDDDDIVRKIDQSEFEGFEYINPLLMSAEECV
UniProt P68400, sequence (whole entry, looked up): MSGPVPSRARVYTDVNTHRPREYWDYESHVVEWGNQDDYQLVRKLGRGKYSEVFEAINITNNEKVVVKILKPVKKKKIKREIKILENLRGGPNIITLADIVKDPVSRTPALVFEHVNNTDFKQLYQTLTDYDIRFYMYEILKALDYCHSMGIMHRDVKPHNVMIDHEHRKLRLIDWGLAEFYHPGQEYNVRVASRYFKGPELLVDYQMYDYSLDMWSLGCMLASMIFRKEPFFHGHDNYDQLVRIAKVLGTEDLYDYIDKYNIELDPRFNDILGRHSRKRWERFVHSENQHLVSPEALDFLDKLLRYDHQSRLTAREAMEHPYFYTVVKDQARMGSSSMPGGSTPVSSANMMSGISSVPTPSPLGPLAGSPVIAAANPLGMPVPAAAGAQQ
UniProt Q9NYY3, sequence (whole entry, looked up): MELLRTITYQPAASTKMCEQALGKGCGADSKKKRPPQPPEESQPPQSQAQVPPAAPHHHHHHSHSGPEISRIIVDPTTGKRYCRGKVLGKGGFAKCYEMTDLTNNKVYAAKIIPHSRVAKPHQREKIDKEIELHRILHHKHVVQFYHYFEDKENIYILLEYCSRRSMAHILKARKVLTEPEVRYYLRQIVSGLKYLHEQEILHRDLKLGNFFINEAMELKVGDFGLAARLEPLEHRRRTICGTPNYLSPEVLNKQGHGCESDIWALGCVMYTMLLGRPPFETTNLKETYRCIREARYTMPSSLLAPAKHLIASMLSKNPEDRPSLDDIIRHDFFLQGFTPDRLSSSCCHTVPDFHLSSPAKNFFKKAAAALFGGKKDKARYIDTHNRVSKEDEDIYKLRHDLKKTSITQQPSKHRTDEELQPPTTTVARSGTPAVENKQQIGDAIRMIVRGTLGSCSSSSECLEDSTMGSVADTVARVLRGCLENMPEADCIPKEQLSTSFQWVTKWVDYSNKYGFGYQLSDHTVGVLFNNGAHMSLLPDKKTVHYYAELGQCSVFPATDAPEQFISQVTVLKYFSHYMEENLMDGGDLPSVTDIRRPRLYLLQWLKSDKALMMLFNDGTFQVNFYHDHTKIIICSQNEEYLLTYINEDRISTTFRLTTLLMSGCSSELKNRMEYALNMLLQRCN
UniProt P10721, sequence (whole entry, looked up): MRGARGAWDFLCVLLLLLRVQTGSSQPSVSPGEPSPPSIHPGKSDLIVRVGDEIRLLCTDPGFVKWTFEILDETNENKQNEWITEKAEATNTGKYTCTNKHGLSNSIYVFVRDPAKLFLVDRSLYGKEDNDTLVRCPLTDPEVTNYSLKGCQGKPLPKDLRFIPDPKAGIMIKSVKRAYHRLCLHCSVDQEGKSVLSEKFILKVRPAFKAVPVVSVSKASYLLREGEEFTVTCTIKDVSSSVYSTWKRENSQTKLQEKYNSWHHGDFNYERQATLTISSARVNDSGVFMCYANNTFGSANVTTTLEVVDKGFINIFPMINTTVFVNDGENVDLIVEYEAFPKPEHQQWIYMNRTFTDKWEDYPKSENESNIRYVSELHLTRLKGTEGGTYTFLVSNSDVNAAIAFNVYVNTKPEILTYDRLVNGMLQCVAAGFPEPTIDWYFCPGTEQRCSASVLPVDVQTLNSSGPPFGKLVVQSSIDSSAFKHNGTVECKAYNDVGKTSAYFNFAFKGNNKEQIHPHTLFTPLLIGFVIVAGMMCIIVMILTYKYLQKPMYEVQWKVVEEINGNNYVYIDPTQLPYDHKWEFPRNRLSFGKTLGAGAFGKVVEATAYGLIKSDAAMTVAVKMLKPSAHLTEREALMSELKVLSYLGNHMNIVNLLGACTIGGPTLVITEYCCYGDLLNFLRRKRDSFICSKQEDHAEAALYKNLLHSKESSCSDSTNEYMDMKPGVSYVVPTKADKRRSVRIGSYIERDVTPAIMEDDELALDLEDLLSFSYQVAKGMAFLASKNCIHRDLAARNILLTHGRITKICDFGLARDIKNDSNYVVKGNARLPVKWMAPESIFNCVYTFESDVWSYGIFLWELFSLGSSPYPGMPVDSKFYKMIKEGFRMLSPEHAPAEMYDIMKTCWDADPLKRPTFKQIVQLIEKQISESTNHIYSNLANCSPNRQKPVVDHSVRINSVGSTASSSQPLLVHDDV
UniProt P53350, sequence (whole entry, looked up): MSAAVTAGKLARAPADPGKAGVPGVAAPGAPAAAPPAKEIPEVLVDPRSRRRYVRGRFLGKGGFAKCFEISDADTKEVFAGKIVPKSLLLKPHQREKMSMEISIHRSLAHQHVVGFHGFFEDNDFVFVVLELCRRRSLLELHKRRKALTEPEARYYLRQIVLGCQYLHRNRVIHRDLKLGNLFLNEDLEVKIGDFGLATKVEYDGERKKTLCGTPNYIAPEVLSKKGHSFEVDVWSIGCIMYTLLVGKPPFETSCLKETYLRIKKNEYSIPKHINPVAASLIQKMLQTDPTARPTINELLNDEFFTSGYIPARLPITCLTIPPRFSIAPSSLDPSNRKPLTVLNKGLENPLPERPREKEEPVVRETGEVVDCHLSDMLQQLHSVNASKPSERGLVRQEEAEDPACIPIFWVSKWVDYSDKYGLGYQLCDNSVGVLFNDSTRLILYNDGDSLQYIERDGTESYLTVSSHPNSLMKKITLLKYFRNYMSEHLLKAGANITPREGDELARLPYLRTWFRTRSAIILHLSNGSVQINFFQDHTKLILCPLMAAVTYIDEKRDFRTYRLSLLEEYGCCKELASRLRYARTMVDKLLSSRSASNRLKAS

Sample 1
SMILES: O=C1Nc2ccc(Br)cc2/C1=C/c1cc2c([nH]1)CCCC2
Effect on: enzyme activity
Mode: inhibitor
Tested at: 0.5 µM
Reference: control
target | remaining activity [%]
MAP4K2 (Homo sapiens, UniProt Q12851) | 58.1
LYN (Homo sapiens, UniProt P07948) | 70.8
MAPK13 (Homo sapiens, UniProt O15264) | 100
PLK2 (Homo sapiens, UniProt Q9NYY3) | 102
STK38 (Homo sapiens, UniProt Q15208) | 80.1
Cyclin-dependent kinase 9, with cyclin T1 (CDK9, Homo sapiens, UniProt P50750) | 90
LRRK2 (Homo sapiens, UniProt Q5S007) | 7.03
CHEK1 (Homo sapiens, UniProt O14757) | 81.8
PRKCI (Homo sapiens, UniProt P41743) | 92
EPHA5 (Homo sapiens, UniProt P54756) | 91.3
CSNK1A1 (Homo sapiens, UniProt P48729) | 100
BTK (Homo sapiens, UniProt Q06187) | 90.5
CSNK2A1 (Homo sapiens, UniProt P68400) | 96.1
NEK4 (Homo sapiens, UniProt P51957) | 80.5
PRKG1 (Homo sapiens, UniProt Q13976) | 77
MAP3K10 (Homo sapiens, UniProt Q02779) | 99.8
WNK2 (Homo sapiens, UniProt Q9Y3S1) | 101
MKNK2 (Homo sapiens, UniProt Q9HBH9) | 87.1
MAP2K6 (Homo sapiens, UniProt P52564) | 110
AKT3 (Homo sapiens, UniProt Q9Y243) | 96.6
KIT (Homo sapiens, UniProt P10721) | 30.5
PRKCD (Homo sapiens, UniProt Q05655) | 95.6
MAPK12 (Homo sapiens, UniProt P53778) | 93
IRAK4 (Homo sapiens, UniProt Q9NWZ3) | 67.2

Sample 2
Organism: Sarcocystis neurona
Effect on: parasite growth
Tested at: 10 µM
Time: 96 h
Notes: first screen
Reference: untreated
Compound | log2 fold change
CCCNC(=O)NS(=O)(=O)c1ccc(Cl)cc1 | 0.1
COc1cc([C@@H]2c3cc4c(cc3[C@H](O)[C@H]3COC(=O)[C@H]23)OCO4)cc(OC)c1OC | -1.36
Cc1nc2n(c(=O)c1CCN1CCC(c3noc4cc(F)ccc34)CC1)CCCC2 | -0.37
CC(=O)[C@@]1(O)CC[C@H]2[C@@H]3C[C@H](C)C4=CC(=O)C=C[C@]4(C)[C@@]3(F)[C@@H](O)C[C@@]21C | 0.26
O=C1CC2(CCCC2)CC(=O)N1CCCCN1CCN(c2ncccn2)CC1 | 0.28
N[C@@H](Cc1cc(I)c(Oc2cc(I)c(O)c(I)c2)c(I)c1)C(=O)O | 0.29
Nc1nc(F)nc2c1ncn2[C@@H]1O[C@H](CO)[C@@H](O)[C@@H]1O | -0.0164
O=C(CCNNC(=O)c1ccncc1)NCc1ccccc1 | 0.07
Cc1cccc(C)c1NC(=O)C1CCCCN1C (centres unmarked) | 0.06
CN1CCN(C2=Nc3cc(F)ccc3Cc3ccccc32)CC1 | -0.16
CCCC1O[C@@H]2C[C@H]3[C@@H]4CCC5=CC(=O)C=C[C@]5(C)[C@H]4[C@@H](O)C[C@]3(C)[C@]2(C(=O)CO)O1 (some centres unmarked) | 0.33
CC[C@H]1OC(=O)[C@H](C)C(=O)[C@H](C)[C@@H](O[C@@H]2O[C@H](C)C[C@H](N(C)C)[C@H]2O)[C@](C)(OC)C[C@@H](C)C(=O)[C@H](C)[C@H]2N(CCCCn3cnc(-c4cccnc4)c3)C(=O)O[C@]12C | -0.18
CC(=O)OCC(=O)NCCCOc1cccc(CN2CCCCC2)c1 | -0.09

Sample 3
Species: human
Sample: microsomes or S9
Tested at: 2 µM
Time: 0.5 h
SMILES | remaining compound
CCCOc1ccc(Oc2nc3ccccc3n3cnnc23)cc1 | 56%
COC(=O)C(OC(C)(C)C)c1cc2c(nc1C)C(=O)NCC2 (centres unmarked) | 80%
O=S(=O)(c1ccccc1)N(CC(O)COc1cc(Cl)ccc1Cl)c1nccs1 (centres unmarked) | 5%
CC(c1ccncn1)N(C)C(=O)c1ccc(OC2CCN(CCc3ccccc3)CC2)cc1 (centres unmarked) | 9.55%
CCN1C(=O)C2(NC(C)Cc3c2[nH]c2ccccc32)c2ccccc21 (centres unmarked) | 3.06%
Cc1ccccc1-c1nc2ccccc2cc1Cn1nc(-c2cncnc2)c2cnc(N)nc21 | > 99%

Sample 4
SMILES: COc1cc(C(=O)N2CCC(N3CCN(C)CC3)CC2)ccc1Nc1ncc2c(n1)N(C)c1ccccc1C(=O)N2C
target | effect on | tested at | remaining activity [%]
IKKe | kinase activity | 1 µM | 76 ± 2
MARK3 | kinase activity | 10 µM | 105 ± 8
PLK1 (Homo sapiens, UniProt P53350) |  | 10 µM | 35 ± 3
TAK1 | kinase activity | 1 µM | 85 ± 12
TBK1 | kinase activity | 1 µM | 94 ± 6
NEK6 | kinase activity | 10 µM | 110 ± 10
S6K1 | kinase activity | 10 µM | 81 ± 17
PKA | kinase activity | 1 µM | 79 ± 5

Other studies, line by line
Structure (SMILES) | target or system | effect on | technique | tested at | time | measurement | value
O=C([C@H]1C[C@H](O)CN1c1ccc(Cl)cc1)N1CC2COCC(C1)N2Cc1ccc(Cl)cc1 | HTR2B (Homo sapiens, UniProt P41595) | binding | radioligand binding | 10 µM |  | inhibition | 14.8%
Cc1cc(C)c(-n2ccn3nc(-c4cccnc4)cc23)cc1NC(=O)c1cc(C#N)cc(S(F)(F)(F)(F)F)c1 | U2OS, HEK-293T and MRC9 |  |  | 1- or 10-fold concentration | 24 h | cell health | no effect

Some of these lines once more (sample 1):
target | remaining activity [%]
MAP3K10 (Homo sapiens, UniProt Q02779) | 99.8
WNK2 (Homo sapiens, UniProt Q9Y3S1) | 101
MKNK2 (Homo sapiens, UniProt Q9HBH9) | 87.1
MAP2K6 (Homo sapiens, UniProt P52564) | 110
AKT3 (Homo sapiens, UniProt Q9Y243) | 96.6
